# Published values of several laboratories.
# Compare with care: the assays were run in different laboratories. Values joined by “and” are separate records of one study, mostly repeats; a detail may differ. Numbers after ± are the reported error.
SMILES,test,test system,setting,how to read,quantity,value
COc1cc2ncnc(Oc3cccc(N[11C](=O)Nc4cc(C(C)(C)C(F)(F)F)on4)c3)c2cc1OC,,"Balb/c nude mouse, female, A375 melanoma xenograft, heart","6.6 MBq, 60 min",,tissue uptake,4.69 ± 0.2 %ID/g
Cc1ccc(C(C)C)cc1.O=C(N=P(c1ccccc1)(c1ccccc1)c1ccccc1)c1ccccn1.[Cl-].[Cl-].[Ru+2],,C57BL/6 mice,intraperitoneal,,lethal dose,30 mg/kg/day
CSCC[C@H](NC(=O)CNC(=O)[C@H](CC(=O)O)NC(=O)[C@@H](NC(=O)[C@@H](NC(=O)[C@@H](NC(=O)CNC(=O)[C@H](CCC(N)=O)NC(=O)[C@H](CCSC)NC(=O)[C@H](CC(=O)O)NC(=O)[C@H](C)NC(=O)[C@H](C)NC(=O)[C@@H](NC(=O)[C@H](CO)NC(=O)[C@@H](N)CC(C)C)[C@@H](C)O)C(C)C)C(C)C)[C@@H](C)O)C(=O)N[C@@H](C)C(=O)N[C@@H](CO)C(=O)NCC(=O)N[C@@H](CC(C)C)C(=O)N[C@@H](CC(=O)O)C(=O)N[C@@H](CCCCN)C(=O)N[C@@H](CC(=O)O)C(=O)N[C@@H](Cc1ccc(O)cc1)C(=O)N[C@@H](CC(C)C)C(=O)N[C@@H](CCCCN)C(=O)N1CCC[C@H]1C(=O)N[C@@H](CC(=O)O)C(=O)N[C@@H](CC(=O)O)C(=O)O,,p53-positive advanced solid tumour patients,dose not given,reference: all events,probably drug-related adverse events,8%
CC[C@H](C)C(=O)N1CCC(NC(=O)Nc2ccc(OC(F)(F)F)c(F)c2)CC1,,"healthy volunteers, both sexes","oral, 8 mg, fasted state",,subjects with injection site reaction,0%
COc1cc(NC(=O)C(=O)c2c(C)n(Cc3ccc(Cl)cc3)c3ccc(C)cc23)ccn1,,"cynomolgus monkey, female, plasma","intravenous, 1 mg/kg",,t1/2,28.2 h and 36.7 h and 31.4 h and 18.1 h and 28.3 h
O=C(CN1CCN(c2cc3c(cc2F)c(=O)c(C(=O)O)cn3C2CC2)CC1)Nc1ccc(Cl)cc1,"two-compartment model, refers to: k12","BALB/c mice, female","iv, 3.75 mg/kg",,rate constant,0.00379 min⁻¹
CC(C)C(=O)OC1O[C@@H]2O[C@@]3(C)CC[C@H]4[C@H](C)CCC([C@H]1C)[C@@]24OO3 (stereo partly drawn),,Tg(fli1:EGFP) zebrafish embryos,"10 µg/mL, up to 48 hpf",,dead embryos,5 count
CN(C)C(CNC(=O)Nc1cc(C(F)(F)F)ccc1N1CCOCC1)c1ccncc1 (stereo not drawn),,"mouse, serum","intraperitoneal, 240 mg/kg single dose",,creatine kinase,8840 U/L
CC[C@H](C)[C@@H]1NC(=O)[C@H](CCCCN)NC(=O)[C@H](CCCCN)NC(=O)[C@H](Cc2ccc(O)cc2)NC(=O)[C@H](CC(C)C)NC(=O)[C@@H]2CCCN2C(=O)[C@H](C)NC(=O)CNC(=O)CNC(=O)[C@H](CO)NC(=O)CNC(=O)CNC(=O)[C@H](CO)NC(=O)[C@H](CCC(=O)O)NC(=O)[C@H](CC(C)C)NC(=O)[C@H](CC(C)C)NC(=O)[C@H](CCCCN)NC(=O)[C@H](CCCCN)NC(=O)[C@H]([C@@H](C)CC)NC(=O)[C@H]([C@@H](C)CC)NC(=O)[C@H](CCCCN)NC(=O)[C@H](CCCCN)NC(=O)[C@H](Cc2ccc(O)cc2)NC(=O)[C@H](CC(C)C)NC(=O)[C@@H]2CCCN2C(=O)CNC(=O)CNC(=O)[C@@H](NC(=O)CN)CSSC[C@@H](C(=O)O)NC(=O)[C@H](CC(C)C)NC(=O)[C@H](CCCCN)NC(=O)[C@H](CCCCN)NC(=O)[C@H]([C@@H](C)CC)NC1=O,,25% human serum,"50 µM, 24 h",reference: 0 h control,remaining intact peptide,4.9 ± 0.1%
CC(=CCC(O)C(C)=Cc1csc(C)n1)CC=CC(C)C(O)C(C)C(=O)C(C)(C)C(O)CC(=O)O (stereo not drawn),,"human, plasma","intravenous infusion, 27 mg/m2 KOS-1584, 3 h infusion, cycle 1",,AUC,0.319 ± 0.106 µg·h/mL
CC[C@H](C)[C@H](NC(=O)[C@H](CC(=O)O)NC(=O)[C@H](CO)NC(=O)[C@H](CCC(N)=O)NC(=O)[C@H](C)NC(=O)[C@H](CC(=O)O)NC(=O)[C@H](CCC(=O)O)NC(=O)[C@H](Cc1c[nH]cn1)NC(=O)[C@H](Cc1ccc(O)cc1)NC(=O)[C@H](C)NC(=O)[C@H](CC(=O)O)NC(=O)[C@H](CCC(=O)O)NC(=O)[C@H](Cc1c[nH]cn1)NC(=O)[C@H](Cc1ccc(O)cc1)NC(=O)[C@H](C)NC(=O)[C@H](CC(=O)O)NC(=O)[C@H](CCC(=O)O)NC(=O)[C@H](Cc1c[nH]cn1)NC(=O)[C@H](Cc1ccc(O)cc1)NC(=O)[C@H](C)NC(=O)[C@H](CC(=O)O)NC(=O)[C@H](CCC(=O)O)NC(=O)[C@H](Cc1c[nH]cn1)NC(=O)[C@H](Cc1ccc(O)cc1)NC(=O)[C@H](C)NC(=O)[C@H](CC(=O)O)NC(=O)[C@H](CCC(=O)O)NC(=O)[C@H](Cc1c[nH]cn1)NC(=O)[C@@H](N)Cc1ccc(O)cc1)C(=O)N[C@H](C(=O)N[C@@H](C)C(=O)N[C@@H](Cc1c[nH]cn1)C(=O)N[C@@H](CC(C)C)C(=O)N[C@@H](CC(C)C)C(=O)O)C(C)C,,"mouse SN model, blood",dose not given,,LY share of white cells,91.2 ± 0.8%
CN[C@](C)(C[18F])C(=O)O,,"SCID mouse U87 xenograft, kidney","15 min, post injection",,tissue uptake,18 ± 2.7 %ID/g
CCCC[C@H]1C(=O)N(C)[C@@H](CCCC)C(=O)N[C@@H](CCCNC(=O)CN2CCN(CC(=O)O)CCN(CC(=O)O)CCN(CC(=O)O)CC2)C(=O)N[C@H](C(=O)NCC(N)=O)CSCC(=O)N[C@@H](Cc2ccc(O)cc2)C(=O)N(C)[C@@H](C)C(=O)N[C@@H](CC(N)=O)C(=O)N2CCC[C@H]2C(=O)N[C@@H](Cc2c[nH]cn2)C(=O)N[C@@H](CC(C)C)C(=O)N(C)CC(=O)N[C@@H](Cc2c[nH]c3ccccc23)C(=O)N[C@@H](CO)C(=O)N[C@@H](Cc2c[nH]c3ccccc23)C(=O)N1C [gallium-68 labelled],,"Kunming mouse, blood","intravenous, 15 min",,radiochemical purity,> 95%
CC[C@H](C)[C@H](NC(=O)[C@H](CC(N)=O)NC(=O)[C@H](Cc1ccccc1)NC(=O)CNC(=O)[C@H](CC(C)C)NC(=O)[C@H](Cc1ccccc1)NC(=O)[C@H](Cc1ccccc1)NC(=O)Cc1ccc2ccccc2c1)C(=O)O,,water,"overnight, pH 6.4, hydrogel formation",,minimum gelation concentration,622 µM
Cc1ccc(/C=C/C(=O)O)cc1-c1cc2c(cc1C)C(C)(C)CCC2(C)C,,"Sprague-Dawley rat, male","oral, 100 mg/kg, 1 h, sesame oil vehicle",,blood triglycerides,68 ± 5.9 mg/dL
CC[C@H](C)[C@H](NC(=O)[C@H](CCCCN)NC(=O)CNC(=O)[C@H](CC(C)C)NC(=O)[C@H](Cc1ccccc1)NC(=O)[C@H](CCCCN)NC(=O)[C@H](CO)NC(=O)[C@H](Cc1ccccc1)NC(=O)[C@H](Cc1c[nH]c2ccccc12)NC(=O)[C@H](CCC(N)=O)NC(=O)[C@@H](NC(=O)[C@H](Cc1ccccc1)NC(=O)CCCCCNC(=O)CN1CCN(CC(=O)O)CCN(CC(=O)O)CCN(CC(=O)O)CC1)C(C)C)C(=O)N[C@@H](CCC(=O)O)C(=O)N1CCC[C@H]1C(=O)N[C@@H](CC(=O)O)C(=O)N[C@H](C(=O)N[C@@H](CO)C(=O)N[C@@H](CCC(N)=O)C(=O)N[C@H](C(=O)N[C@@H](CCC(N)=O)C(=O)N[C@@H](CC(=O)O)C(=O)N1CCC[C@H]1C(=O)N[C@@H](CC(N)=O)C(=O)N[C@@H](CC(=O)O)C(=O)N[C@@H](CCC(N)=O)C(=O)N[C@@H](Cc1ccc(O)cc1)C(=O)N[C@@H](CCC(=O)O)C(=O)N1CCC[C@H]1C(=O)N[C@@H](Cc1ccccc1)C(=O)O)C(C)C)C(C)C [copper-64 labelled],dynamic PET,BALB/c mice,intravenous,,blood clearance t1/2,~8 min
CC[C@H](C)[C@H](NC(=O)[C@H](Cc1ccccc1)NC(=O)[C@H](CC(=O)O)NC(=O)[C@H](CCCN)NC(=O)[C@H](Cc1ccccc1)NC(=O)[C@H](Cc1ccccc1)NC(=O)[C@H](CCCCN)NC(=O)[C@H](CN)NC(=O)[C@H](CC(C)C)NC(=O)[C@H](CCCNC(=N)N)NC(=O)[C@H](CCSC)NC(=O)[C@H](C)N)C(=O)N[C@@H](CC(C)C)C(=O)N[C@@H](CCC(N)=O)C(=O)N[C@@H](CCCNC(=N)N)C(=O)N[C@@H](CCCCN)C(=O)N[C@@H](CCCCN)C(=O)O,circular dichroism,20% TFE in PBS,"200 µM, pH 7.4, 25 °C",,helicity,19.1%
c1ccc(C2(CCNC3CCC4(SCCS4)c4ccccc43)CCOC3(CCCC3)C2)nc1 (stereo not drawn),,rat,"intravenous, 0.15 mg/kg",,AUC(0-24 h),0.137 µg·h/mL
CCN(Cc1ccccc1)C(=O)CCc1nc(CN2CCN(C(=O)Cc3ccc(OC)c(OC)c3)CC2)no1,,"rat, liver","intravenous, 1 mg/kg, 2 h, single dose",,concentration,< 90 ng/g
O=c1cc(-c2ccccc2)oc2c(Br)c(O)c(O)c(O)c12,,"C57BL/6 mouse, plasma","po, 150 mg/kg",,AUC extrapolated percentage,5.6 ± 4.8%
N=C(N)Nc1ccc(-c2nc3ccc(-c4ccc5nc(-c6ccc(NC(=N)N)cc6)[nH]c5c4)cc3[nH]2)cc1,,HSA-LR mouse,"intraperitoneal, 40 mg/kg daily, 7 days",,tolerability,not toxic

# Excerpt of the above:
SMILES,test,test system,setting,how to read,quantity,value
COc1cc(NC(=O)C(=O)c2c(C)n(Cc3ccc(Cl)cc3)c3ccc(C)cc23)ccn1,,"cynomolgus monkey, female, plasma","intravenous, 1 mg/kg",,t1/2,28.2 h and 36.7 h and 31.4 h and 18.1 h and 28.3 h
CC[C@H](C)[C@@H]1NC(=O)[C@H](CCCCN)NC(=O)[C@H](CCCCN)NC(=O)[C@H](Cc2ccc(O)cc2)NC(=O)[C@H](CC(C)C)NC(=O)[C@@H]2CCCN2C(=O)[C@H](C)NC(=O)CNC(=O)CNC(=O)[C@H](CO)NC(=O)CNC(=O)CNC(=O)[C@H](CO)NC(=O)[C@H](CCC(=O)O)NC(=O)[C@H](CC(C)C)NC(=O)[C@H](CC(C)C)NC(=O)[C@H](CCCCN)NC(=O)[C@H](CCCCN)NC(=O)[C@H]([C@@H](C)CC)NC(=O)[C@H]([C@@H](C)CC)NC(=O)[C@H](CCCCN)NC(=O)[C@H](CCCCN)NC(=O)[C@H](Cc2ccc(O)cc2)NC(=O)[C@H](CC(C)C)NC(=O)[C@@H]2CCCN2C(=O)CNC(=O)CNC(=O)[C@@H](NC(=O)CN)CSSC[C@@H](C(=O)O)NC(=O)[C@H](CC(C)C)NC(=O)[C@H](CCCCN)NC(=O)[C@H](CCCCN)NC(=O)[C@H]([C@@H](C)CC)NC1=O,,25% human serum,"50 µM, 24 h",reference: 0 h control,remaining intact peptide,4.9 ± 0.1%
